# Published values pooled from the literature.
# ± marks the error that the study gave.
# Chain of UniProt F8G0P2 (whole entry, unmodified, looked up): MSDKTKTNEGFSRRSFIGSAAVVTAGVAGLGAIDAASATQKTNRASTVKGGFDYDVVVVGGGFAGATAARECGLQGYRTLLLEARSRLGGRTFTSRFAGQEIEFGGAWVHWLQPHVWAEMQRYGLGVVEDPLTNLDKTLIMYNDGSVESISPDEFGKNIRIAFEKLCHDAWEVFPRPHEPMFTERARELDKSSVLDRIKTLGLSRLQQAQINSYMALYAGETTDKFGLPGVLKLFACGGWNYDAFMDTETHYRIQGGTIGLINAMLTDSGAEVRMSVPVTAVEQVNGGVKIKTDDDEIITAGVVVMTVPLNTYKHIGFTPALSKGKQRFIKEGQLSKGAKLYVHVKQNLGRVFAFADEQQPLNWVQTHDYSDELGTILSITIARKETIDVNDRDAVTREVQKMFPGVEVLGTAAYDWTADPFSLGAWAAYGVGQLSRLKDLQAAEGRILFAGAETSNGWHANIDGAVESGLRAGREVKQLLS
# Chain of UniProt P01317 (whole entry, looked up): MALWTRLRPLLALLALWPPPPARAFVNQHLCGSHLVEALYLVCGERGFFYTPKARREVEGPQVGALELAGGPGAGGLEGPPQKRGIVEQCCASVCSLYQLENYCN
Molecule,target or system,test,setting,quantity,value
insulin,"Insulin (INS, Bos taurus, UniProt P01317)",circular dichroism,300 min,α-helix content,21.8%
"nicA2 (Pseudomonas putida, UniProt F8G0P2)",CN1CCC[C@H]1c1cccnc1,steady-state kinetics,"pH 7.4, 22 °C",kcat/Km,53500 M⁻¹ s⁻¹
dmhA K162M (Campylobacter jejuni),Nc1nc2c(ncn2[C@@H]2O[C@H](COP(=O)(O)OP(=O)(O)O[C@H]3O[C@H]([C@H](O)CO)[C@@H](O)[C@H](O)[C@@H]3O)[C@@H](O)[C@H]2O)c(=O)[nH]1,steady-state kinetics,"pH 7.5, 30 °C",kcat,0.002 ± 0.0001 s⁻¹
hdhb E18D/G39D/R40A/R41A/T17A (Clostridium sardiniense),NC(=O)c1ccc[n+]([C@@H]2O[C@H](COP(=O)(O)OP(=O)(O)OC[C@H]3O[C@@H](n4cnc5c(N)ncnc54)[C@H](O)[C@@H]3O)[C@@H](O)[C@H]2O)c1,steady-state kinetics,"pH 8, 25 °C, cofactor varied",kcat,0.32 ± 0.01 s⁻¹
nicA2 T250V/T381V (Pseudomonas putida),CN1CCC[C@H]1c1cccnc1,steady-state kinetics,"pH 7.4, 22 °C",kcat/Km,10300 M⁻¹ s⁻¹
CCCC[C@H]1NC(=O)[C@H](Cc2ccc(F)cc2)NC(=O)[C@H](CCCNC(=N)N)NC(=O)[C@@H](Cc2ccc3ccccc3c2)NC(=O)[C@H](CCCNC(=N)N)NC(=O)[C@H](CCCNC(=N)N)NC(=O)[C@H](CCC(N)=O)NC(=O)C[C@@H](CCc2ccccc2)NC(=O)[C@@H]2CCCCN2C(=O)C(=O)C(C)(C)COC1=O,MBP-fused viral VP35,fluorescence polarization,up to 20 µM,binding,no binding
dmhA Y300F (Campylobacter jejuni),Nc1nc2c(ncn2[C@@H]2O[C@H](COP(=O)(O)OP(=O)(O)O[C@H]3O[C@H]([C@H](O)CO)[C@@H](O)[C@H](O)[C@@H]3O)[C@@H](O)[C@H]2O)c(=O)[nH]1,steady-state kinetics,"pH 7.5, 30 °C",kcat/Km,5600 ± 600 M⁻¹ s⁻¹
hdhb G39D/R40L/R41N/T17A (Clostridium sardiniense),NC(=O)c1ccc[n+]([C@@H]2O[C@H](COP(=O)(O)OP(=O)(O)OC[C@H]3O[C@@H](n4cnc5c(N)ncnc54)[C@H](O)[C@@H]3O)[C@@H](O)[C@H]2O)c1,steady-state kinetics,"pH 8, 25 °C, cofactor varied",kcat/Km,266 M⁻¹ s⁻¹

# For quick reference, copied from above:
Molecule,target or system,test,setting,quantity,value
nicA2 T250V/T381V (Pseudomonas putida),CN1CCC[C@H]1c1cccnc1,steady-state kinetics,"pH 7.4, 22 °C",kcat/Km,10300 M⁻¹ s⁻¹
